# Published values pooled from the literature.
# Parts stem from different laboratories: compare values within a part only. Changes are numbered by the printed parent chain.

# Study 1 — technique: RNA Bind-n-Seq; form: RNA; medium: in vitro; tested at: 365 nM; baseline: no-protein control; reading: higher = stronger binding
# Target: RNA binding protein fox-1 homolog 2, RRM domain, GST-SBP tag (RBFOX2, Homo sapiens, UniProt O43251-10, residues 100-194)
# Notes: natural RNA segment, single round, ends assumed
# All sequences stand within: GGGAGUUCUACAGUCCGACGAUC … UGGAAUUCUCGGGUGCCAA
# Target sequence (chain): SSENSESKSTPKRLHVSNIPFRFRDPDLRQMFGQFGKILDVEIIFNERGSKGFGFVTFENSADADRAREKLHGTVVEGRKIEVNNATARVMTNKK
Sequence,RBNS enrichment (R)
AAAGCCAGAGUGCAAGUCAUGAUUUGCGGGAGGGCUCUUGAACCACUUCUGGCUGCACCACAAUUCUGUACUUGAGUAUCACAGUCAUUGUUUUUGAGACAAACAUUUUU,0.556
AACUUUUCUUGGCUUAUAAGGUCCAAUUUCUGUGUCUGGAGGUAUAAAAAAAUUACACUGACUACUGGUGGCUUAGUACUUUAUGUUGUCUCUCACCUAAAUAGUUCCAC,0.389
UACAUUAGUUUUUACACUAAAACUUUACAAGAUAAAAUUGGACUUCAUUUAGUAUCUUUUUAACAGAAUUACUUGGAAUAAUGAGAUACAAUAAUCAUAUCUCUUUUGAC,0.358
CGAUGAUGCUCCGCCUUUACCCGUUCAGUUGGGAGCUUAUUGUGAGAUUGGAUCAUUUCCUUUUGAGUGUUCUUCUCUUUGGUACAAAAGCUAUUGUGGGUGACAGGAGC,0.573
UGAAAUUGCAAAACUCUUGUAGCUCAUUCUGAAAUCUUUCCCCUGUAGUCCAGAACUGGGGAGGCCAGGAGAGCCGUUACUCACUCCAUGGCUCUCAGACCGCGUUCCUC,0.413
CUAUUUAUAGAGCCAAUGUGGGUUAAUAACUACUAUUUAUUGAGUGCCCGUUCCAUGCCAAGCAUUAGGCUGGGUGCUUUACAUAAGUUUAAUCCUCACAAUAGCCCUGU,0.369
UUGGAGUCAGACAGGCCUGGCACAGGCACUGGAGCUACUGAAUGAAGCUCUAGCUUAGCCUUCUCAGUAAGGUGUAAGAAGCUGGUGUUGCUGUGUAGUGUUAAUUUAUU,0.631
AGCAAGUUUGACCUUGGUUCUGUUGCUGAAGCAAAUUUGGAACUUUUCUGUCUCAGUGUGAUCCACUAACCCACAGGAUCAUUUGGAACCUUGAAUAGCUCUGCUUGGAC,0.363

# Study 2 — target: CCND1, cyclin fold, Cln2 fusion (human); technique: yeast growth competition, sequencing; medium: yeast; notes: weak parent motif; baseline: not given; reading: higher = stronger binding
# Starting sequence: DBF4B docking peptide (human); LGYLYLLLTQSLW
Substitution,normalised enrichment score
LGYLYLLLTQSLA [W13A],-0.149
LGYLYLLLAQSLW [T9A],0.219
LGYLYLLATQSLW [L8A],0.525
AGYLYLLLTQSLW [L1A],0.399
LGYLYLLLTASLW [Q10A],0.335
LAYLYLLLTQSLW [G2A],-0.298
LGYLYLALTQSLW [L7A],0.345

# Study 3 — technique: DHFR PCA, deep sequencing; medium: yeast; with: (+)-ABA 0.0091 µM; baseline: wild-type fitted maximum; reading: higher = stronger binding
# Target: ABI1, truncated, D143A, DHFR fusion (Arabidopsis thaliana)
# Notes: methotrexate growth selection, single substitutions
# Starting sequence: PYL1, truncated, DHFR fusion (Arabidopsis thaliana); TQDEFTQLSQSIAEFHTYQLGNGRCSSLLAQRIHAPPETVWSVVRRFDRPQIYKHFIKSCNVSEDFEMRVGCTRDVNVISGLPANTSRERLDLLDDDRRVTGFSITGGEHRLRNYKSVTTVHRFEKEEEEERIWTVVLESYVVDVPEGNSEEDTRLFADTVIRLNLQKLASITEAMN; partner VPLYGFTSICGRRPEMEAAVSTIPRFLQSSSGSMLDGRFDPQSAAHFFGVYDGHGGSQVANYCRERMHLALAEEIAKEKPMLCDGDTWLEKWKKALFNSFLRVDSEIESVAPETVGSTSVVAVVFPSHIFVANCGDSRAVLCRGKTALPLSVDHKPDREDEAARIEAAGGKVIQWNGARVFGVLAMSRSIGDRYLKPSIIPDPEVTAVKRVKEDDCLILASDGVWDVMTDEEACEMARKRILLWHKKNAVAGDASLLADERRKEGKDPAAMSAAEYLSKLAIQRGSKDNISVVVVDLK
Substitution,relative binding score [%]
F47G,-1.23
N61Y,33.4
I57L,0.798
K168G,-6.82
S104F,-5.4
L138F,8.93
D95R,-11.3
S150Y,-0.774
S150H,3.73
S150I,-0.89
A175C,14.4
T17F,1.54
E109G,-0.593
K116H,7.04
F157Y,38.3
D159T,-7.08

# Study 4 — target: BATF2, bZIP domain (human); technique: DHFR protein complementation; medium: yeast; baseline: wild-type JUN-FOS pair; reading: higher = stronger binding
# Notes: single substitutions, most at no-binding floor
# Starting sequence: JUN, bZIP domain (human); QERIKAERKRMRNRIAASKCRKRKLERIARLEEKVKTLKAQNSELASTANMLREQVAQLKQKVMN; partner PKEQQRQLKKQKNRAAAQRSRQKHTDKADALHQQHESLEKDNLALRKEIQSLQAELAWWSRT
Substitution,binding fitness [natural log]
S43Q,-0.123
V56W,-1.42
R53S,-1.06
S43G,-0.331
A29W,-0.666
E44P,-1.46
L45S,-1.41
M51P,-1.24
R30A,0.0374
A49M,-0.648
K34Q,-0.309
L38N,-1.51
E33Q,-0.432
K39W,-0.922
T37D,-0.17
A40F,-0.472
A46C,-0.412
R53Y,-1.38
A49C,-0.499
R30Q,-0.11
E44C,-0.618
K39A,-0.448
E44T,-0.537
L31F,-1.01
L38D,-1.52

# Study 5 — technique: protein binding microarray; form: double-stranded DNA, one strand shown; medium: in vitro; tested at: not given; baseline: not given; reading: higher = stronger binding
# Target: Histone acetyltransferase KAT6A, both winged helices, GST fusion (KAT6A, Homo sapiens, UniProt Q92794, residues 1-181)
# Notes: 8-mer, flanks averaged, mean of 2 arrays, mostly near background
# Construct (chain): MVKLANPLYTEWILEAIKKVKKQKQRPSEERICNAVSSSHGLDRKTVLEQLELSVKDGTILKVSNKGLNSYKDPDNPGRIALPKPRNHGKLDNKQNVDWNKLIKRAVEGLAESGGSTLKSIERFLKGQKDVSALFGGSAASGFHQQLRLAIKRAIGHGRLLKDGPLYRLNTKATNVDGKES
Sequence,E-score
CGACCTCG,0.0484
ATCACCCC,-0.111
CTAATGCC,-0.00199
CGGGTAGC,0.233
GACATAAA,0.022
GGATAGTA,-0.0934
CATCTCCC,0.0643
AGTGTACC,-0.0763
CTGTGCGA,0.0146
GCGATTTA,0.137
ACTCTATC,-0.126
ACGCGAAT,0.104
CGCCGGGC,0.308
ACTTTCGG,-0.0977
CATGAGTA,-0.0227
AATGCAAC,-0.218
ACCGGTCT,0.0451
TAGCCTAA,-0.118
GCGTCCTA,0.0717
AATCTACA,-0.0968
GCGGTTCC,0.198
ACCTAGCT,-0.291
ATCGCTGG,0.07
AACACTCG,0.0743
CTAGAAAA,0.0289

# For quick reference, copied from above (study 5):
Sequence,E-score
AGTGTACC,-0.0763
CTGTGCGA,0.0146
GCGATTTA,0.137
ACTCTATC,-0.126
ACGCGAAT,0.104
CGCCGGGC,0.308
ACTTTCGG,-0.0977
CATGAGTA,-0.0227
AATGCAAC,-0.218
ACCGGTCT,0.0451
TAGCCTAA,-0.118
